Measured values pooled from the literature.
Protocols differ between the studies behind these lines. “And” joins repeats or separate records; there may be more than shown. ± gives the spread as reported.
lasR: Transcriptional activator protein LasR (lasR, Pseudomonas aeruginosa, UniProt P25084)
MAPK8: Mitogen-activated protein kinase 8 (MAPK8, Homo sapiens, UniProt P45983)
cyp121: Mycocyclosin synthase (cyp121, Mycobacterium tuberculosis, UniProt P9WPP7)
Orco: Orco (Drosophila melanogaster, UniProt Q9VNB5)

Chains of the proteins cited; added tags and fusions are not shown. Residues count along the entry.
UniProt P25084, 1-173 limits assumed: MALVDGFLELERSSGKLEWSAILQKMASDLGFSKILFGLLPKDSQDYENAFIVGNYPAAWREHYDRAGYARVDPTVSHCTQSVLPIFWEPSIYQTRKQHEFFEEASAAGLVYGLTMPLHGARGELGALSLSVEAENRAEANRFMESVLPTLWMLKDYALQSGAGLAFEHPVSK
UniProt P25084, whole entry: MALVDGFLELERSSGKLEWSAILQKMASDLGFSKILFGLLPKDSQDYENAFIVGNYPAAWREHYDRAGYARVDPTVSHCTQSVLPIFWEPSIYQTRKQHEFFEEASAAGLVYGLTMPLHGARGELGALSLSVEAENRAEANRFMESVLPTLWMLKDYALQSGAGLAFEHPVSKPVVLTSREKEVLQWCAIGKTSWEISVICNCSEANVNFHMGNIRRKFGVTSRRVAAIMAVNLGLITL
UniProt P45983, 1-384 isoform 3: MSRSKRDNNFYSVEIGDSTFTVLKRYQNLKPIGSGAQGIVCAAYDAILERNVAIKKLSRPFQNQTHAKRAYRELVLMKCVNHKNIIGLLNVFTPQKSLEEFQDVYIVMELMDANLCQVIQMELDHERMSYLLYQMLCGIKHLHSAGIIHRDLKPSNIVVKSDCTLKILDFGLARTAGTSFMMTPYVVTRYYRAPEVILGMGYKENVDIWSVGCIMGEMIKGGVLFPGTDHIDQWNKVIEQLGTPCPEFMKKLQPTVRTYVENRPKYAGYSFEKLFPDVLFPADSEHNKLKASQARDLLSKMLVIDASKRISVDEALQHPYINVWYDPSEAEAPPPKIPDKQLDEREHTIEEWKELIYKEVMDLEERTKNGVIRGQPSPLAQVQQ
UniProt P9WPP7, whole entry: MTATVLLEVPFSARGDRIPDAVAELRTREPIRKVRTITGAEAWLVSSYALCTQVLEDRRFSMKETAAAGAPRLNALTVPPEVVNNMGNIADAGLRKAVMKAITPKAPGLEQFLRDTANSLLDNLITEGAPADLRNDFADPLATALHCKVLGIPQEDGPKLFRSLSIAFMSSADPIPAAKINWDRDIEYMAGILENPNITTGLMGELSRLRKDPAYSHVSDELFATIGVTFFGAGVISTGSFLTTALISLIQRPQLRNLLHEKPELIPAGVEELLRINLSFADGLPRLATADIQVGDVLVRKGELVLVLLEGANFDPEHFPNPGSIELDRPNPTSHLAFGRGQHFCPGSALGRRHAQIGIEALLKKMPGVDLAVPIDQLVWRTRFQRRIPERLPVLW
UniProt Q9VNB5, whole entry: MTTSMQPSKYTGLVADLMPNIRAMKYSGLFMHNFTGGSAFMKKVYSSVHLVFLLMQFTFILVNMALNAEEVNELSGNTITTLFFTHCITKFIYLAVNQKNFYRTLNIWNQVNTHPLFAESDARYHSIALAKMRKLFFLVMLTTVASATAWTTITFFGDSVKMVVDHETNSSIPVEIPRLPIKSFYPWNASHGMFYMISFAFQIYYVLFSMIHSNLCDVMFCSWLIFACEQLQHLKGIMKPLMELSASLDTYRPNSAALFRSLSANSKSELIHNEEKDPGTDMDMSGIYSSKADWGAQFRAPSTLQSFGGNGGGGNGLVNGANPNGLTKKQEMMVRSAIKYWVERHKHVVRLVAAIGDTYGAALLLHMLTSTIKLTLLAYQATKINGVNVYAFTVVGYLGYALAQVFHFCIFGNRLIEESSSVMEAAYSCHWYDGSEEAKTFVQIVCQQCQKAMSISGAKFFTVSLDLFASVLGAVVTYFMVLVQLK
UniProt P38489, whole entry: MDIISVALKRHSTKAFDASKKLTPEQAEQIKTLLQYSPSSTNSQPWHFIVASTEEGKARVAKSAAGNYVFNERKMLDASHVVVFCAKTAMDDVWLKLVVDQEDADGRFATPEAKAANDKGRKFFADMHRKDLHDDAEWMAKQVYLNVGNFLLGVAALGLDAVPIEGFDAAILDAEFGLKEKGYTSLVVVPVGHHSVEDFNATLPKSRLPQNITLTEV
UniProt P14867, whole entry, looked up: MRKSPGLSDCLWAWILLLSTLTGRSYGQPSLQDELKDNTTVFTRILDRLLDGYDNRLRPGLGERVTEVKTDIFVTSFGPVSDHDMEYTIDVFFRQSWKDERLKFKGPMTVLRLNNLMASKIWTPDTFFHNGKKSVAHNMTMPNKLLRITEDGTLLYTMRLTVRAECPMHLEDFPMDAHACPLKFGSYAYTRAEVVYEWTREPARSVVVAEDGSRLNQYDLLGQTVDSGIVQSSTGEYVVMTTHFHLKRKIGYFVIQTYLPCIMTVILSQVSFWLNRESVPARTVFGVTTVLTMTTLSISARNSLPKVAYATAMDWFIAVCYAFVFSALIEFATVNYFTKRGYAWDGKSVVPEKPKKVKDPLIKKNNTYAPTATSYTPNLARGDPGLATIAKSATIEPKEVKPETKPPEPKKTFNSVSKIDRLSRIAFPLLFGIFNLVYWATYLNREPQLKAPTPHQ
UniProt P28472, whole entry, looked up: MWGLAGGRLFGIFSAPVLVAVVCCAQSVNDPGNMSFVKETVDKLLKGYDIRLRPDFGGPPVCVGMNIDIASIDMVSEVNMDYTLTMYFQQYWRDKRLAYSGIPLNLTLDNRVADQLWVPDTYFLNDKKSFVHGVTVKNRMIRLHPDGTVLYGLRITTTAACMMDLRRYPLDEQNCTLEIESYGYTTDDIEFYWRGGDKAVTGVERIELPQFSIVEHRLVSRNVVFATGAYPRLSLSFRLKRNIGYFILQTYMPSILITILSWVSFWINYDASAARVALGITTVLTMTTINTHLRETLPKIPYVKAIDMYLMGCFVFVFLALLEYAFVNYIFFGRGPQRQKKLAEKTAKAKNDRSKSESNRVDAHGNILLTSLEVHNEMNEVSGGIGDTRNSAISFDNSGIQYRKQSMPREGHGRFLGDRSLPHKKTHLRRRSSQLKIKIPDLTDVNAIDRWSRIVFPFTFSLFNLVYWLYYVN
UniProt Q6XEC0, 23-265 limits assumed: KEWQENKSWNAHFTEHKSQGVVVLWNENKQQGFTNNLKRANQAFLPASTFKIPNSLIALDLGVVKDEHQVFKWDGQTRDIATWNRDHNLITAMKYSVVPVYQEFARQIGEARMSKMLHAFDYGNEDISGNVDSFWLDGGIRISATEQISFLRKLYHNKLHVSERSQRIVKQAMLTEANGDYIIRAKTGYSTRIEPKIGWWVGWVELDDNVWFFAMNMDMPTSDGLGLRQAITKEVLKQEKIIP
UniProt Q8RLA6, 21-275 limits assumed: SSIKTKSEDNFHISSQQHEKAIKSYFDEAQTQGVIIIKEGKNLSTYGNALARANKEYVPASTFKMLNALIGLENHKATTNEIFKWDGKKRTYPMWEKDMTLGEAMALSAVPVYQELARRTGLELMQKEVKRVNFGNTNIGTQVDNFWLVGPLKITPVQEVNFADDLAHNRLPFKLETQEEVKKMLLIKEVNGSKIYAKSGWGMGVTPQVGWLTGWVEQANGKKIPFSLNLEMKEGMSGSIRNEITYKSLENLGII
UniProt P31652, whole entry: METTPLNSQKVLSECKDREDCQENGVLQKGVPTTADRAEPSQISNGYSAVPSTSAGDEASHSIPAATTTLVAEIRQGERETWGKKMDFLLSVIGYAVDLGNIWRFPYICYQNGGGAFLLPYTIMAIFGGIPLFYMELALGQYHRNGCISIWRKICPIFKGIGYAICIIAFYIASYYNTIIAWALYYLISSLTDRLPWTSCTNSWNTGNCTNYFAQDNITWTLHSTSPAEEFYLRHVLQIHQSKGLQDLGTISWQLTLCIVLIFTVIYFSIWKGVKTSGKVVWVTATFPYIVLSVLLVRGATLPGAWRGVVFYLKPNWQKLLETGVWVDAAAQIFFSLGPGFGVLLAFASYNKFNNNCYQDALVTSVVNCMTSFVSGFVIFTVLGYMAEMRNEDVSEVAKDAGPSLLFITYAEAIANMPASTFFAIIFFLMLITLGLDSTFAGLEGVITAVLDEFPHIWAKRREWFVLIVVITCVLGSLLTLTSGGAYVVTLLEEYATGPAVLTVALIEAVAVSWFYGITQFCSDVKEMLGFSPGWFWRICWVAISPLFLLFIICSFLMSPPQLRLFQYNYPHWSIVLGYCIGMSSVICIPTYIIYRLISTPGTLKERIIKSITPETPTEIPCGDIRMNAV
UniProt C7C422, 36-270 limits assumed: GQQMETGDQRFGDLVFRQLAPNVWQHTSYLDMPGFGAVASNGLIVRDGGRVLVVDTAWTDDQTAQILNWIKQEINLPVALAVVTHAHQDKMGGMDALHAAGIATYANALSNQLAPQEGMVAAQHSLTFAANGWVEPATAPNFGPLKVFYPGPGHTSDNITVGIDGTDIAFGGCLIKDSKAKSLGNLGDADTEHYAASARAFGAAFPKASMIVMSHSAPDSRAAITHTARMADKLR
UniProt P17787, 26-502 limits assumed: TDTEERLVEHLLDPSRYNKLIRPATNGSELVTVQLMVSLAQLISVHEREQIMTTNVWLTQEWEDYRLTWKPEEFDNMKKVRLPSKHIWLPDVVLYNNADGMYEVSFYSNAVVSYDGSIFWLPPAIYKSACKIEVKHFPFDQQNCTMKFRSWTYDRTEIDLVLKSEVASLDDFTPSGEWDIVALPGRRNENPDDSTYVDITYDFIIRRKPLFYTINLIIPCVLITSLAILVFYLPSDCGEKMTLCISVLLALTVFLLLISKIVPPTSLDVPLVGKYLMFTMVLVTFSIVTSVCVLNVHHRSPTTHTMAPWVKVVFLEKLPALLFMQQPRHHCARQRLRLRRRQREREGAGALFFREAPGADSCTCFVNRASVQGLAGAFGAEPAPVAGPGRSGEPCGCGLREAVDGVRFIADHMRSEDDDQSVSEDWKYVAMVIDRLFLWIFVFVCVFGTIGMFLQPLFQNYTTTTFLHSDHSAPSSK
UniProt P43681, 29-627 limits assumed: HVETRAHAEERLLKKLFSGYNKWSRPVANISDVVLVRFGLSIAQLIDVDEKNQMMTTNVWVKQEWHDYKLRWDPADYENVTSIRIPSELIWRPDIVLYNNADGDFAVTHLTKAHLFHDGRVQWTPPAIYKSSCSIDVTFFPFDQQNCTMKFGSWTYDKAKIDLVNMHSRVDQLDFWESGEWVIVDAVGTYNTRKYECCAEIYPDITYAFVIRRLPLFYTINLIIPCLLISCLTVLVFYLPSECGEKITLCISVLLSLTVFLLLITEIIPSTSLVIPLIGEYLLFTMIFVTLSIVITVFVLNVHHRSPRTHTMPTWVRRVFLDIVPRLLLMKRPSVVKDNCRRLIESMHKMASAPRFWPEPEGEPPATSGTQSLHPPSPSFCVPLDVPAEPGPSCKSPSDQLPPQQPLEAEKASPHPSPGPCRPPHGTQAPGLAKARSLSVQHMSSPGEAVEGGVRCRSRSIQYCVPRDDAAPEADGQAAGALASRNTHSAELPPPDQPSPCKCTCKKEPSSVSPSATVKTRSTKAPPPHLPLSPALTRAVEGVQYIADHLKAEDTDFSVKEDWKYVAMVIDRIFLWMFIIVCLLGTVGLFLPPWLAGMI
UniProt P05067, whole entry, looked up: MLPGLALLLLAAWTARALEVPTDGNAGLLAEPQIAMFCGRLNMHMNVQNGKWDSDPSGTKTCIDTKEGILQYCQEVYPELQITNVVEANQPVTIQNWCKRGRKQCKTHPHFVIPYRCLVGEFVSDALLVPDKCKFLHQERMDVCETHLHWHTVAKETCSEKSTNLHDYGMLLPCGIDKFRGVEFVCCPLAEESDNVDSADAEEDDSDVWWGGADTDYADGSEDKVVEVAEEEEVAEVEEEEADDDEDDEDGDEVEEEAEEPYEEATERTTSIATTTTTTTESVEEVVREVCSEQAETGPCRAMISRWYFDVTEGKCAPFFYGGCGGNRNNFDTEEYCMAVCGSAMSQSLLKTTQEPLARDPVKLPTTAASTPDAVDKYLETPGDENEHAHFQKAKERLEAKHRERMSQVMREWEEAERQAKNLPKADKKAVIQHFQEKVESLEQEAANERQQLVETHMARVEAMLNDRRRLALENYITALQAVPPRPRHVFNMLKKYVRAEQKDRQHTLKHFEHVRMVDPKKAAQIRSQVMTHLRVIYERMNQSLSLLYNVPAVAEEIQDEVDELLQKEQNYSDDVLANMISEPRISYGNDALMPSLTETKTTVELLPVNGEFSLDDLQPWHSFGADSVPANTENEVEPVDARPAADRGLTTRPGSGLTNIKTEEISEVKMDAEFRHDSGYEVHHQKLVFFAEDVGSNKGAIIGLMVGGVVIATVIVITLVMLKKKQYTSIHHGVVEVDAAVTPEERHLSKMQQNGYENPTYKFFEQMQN
UniProt P08908, whole entry: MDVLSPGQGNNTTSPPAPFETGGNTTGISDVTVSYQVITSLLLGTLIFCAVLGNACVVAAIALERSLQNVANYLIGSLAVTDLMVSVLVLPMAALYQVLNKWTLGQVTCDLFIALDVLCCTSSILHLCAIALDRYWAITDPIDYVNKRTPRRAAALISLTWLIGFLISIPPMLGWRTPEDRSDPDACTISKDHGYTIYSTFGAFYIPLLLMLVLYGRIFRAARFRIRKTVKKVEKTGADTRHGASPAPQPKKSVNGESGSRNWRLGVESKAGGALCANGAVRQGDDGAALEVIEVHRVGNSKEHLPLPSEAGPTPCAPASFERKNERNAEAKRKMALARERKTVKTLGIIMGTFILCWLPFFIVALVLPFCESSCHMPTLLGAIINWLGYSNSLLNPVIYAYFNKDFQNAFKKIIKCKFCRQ

COc1c(Br)cc(Br)cc1CNC(=O)c1ccccc1[N+](=O)[O-]
maximum efficacy (lasR; reporter gene, agonist; Escherichia coli JLD271 lasI-lacZ reporter; baseline: OdDHL): 85%

CC1(C)C(=CC=C(C=CC2=[N+](CCCCS(=O)(=O)[O-])c3ccc4ccccc4c3C2(C)C)c2ccc3cc[n+](Cc4ccc([N+](=O)[O-])cc4)cc3c2)N(CCCCS(=O)(=O)[O-])c2ccc3ccccc3c21
Km (Oxygen-insensitive NAD(P)H nitroreductase (nfsB, Escherichia coli K-12, UniProt P38489); substrate, fluorogenic turn-on): < 1 µM

COC(=O)[C@@]1(C)C=C(C(=O)Nc2ccc(C)c(C(=O)Nc3ccc(Nc4nccc(-c5cccnc5)n4)cc3)c2)C(=O)CC1
remaining activity (MAPK8; kinase activity, inhibitor; 0.1829 µM, unit not given, added: 10 mM GSH; baseline: DMSO): 0.13

Fc1ccc(-c2csc(Cn3ccnc3)c2)cc1
Kd (cyp121; binding): 18.9 ± 3.1 µM

O=C1NC(=O)C2(Cc3ccccc32)N1 (racemic)
maximal inhibition (GABA-A receptor alpha-1/beta-3 (GABRA1/GABRB3, Homo sapiens, UniProt P14867+P28472); [3H]muscimol binding; alpha1beta3 receptor): 114%

CCn1c(SCC(=O)Nc2ccc(C(C)C)cc2)nnc1-c1ccncc1
efficacy (Orco; calcium mobilization, agonist; HEK293 expressing Drosophila Orco; baseline: VUAA1): 150%

O=C(N[C@@H]1CC[C@@]2(O)[C@H]3Cc4ccc(O)c5c4[C@@]2(CCN3CC2CC2)[C@H]1O5)c1ccnc(Cl)c1
selectivity ratio (Kappa-type opioid receptor (Oprk1, Mus musculus, UniProt P33534); radioligand binding; CHO; added: [3H]diprenorphine; baseline: Ki δ over Ki κ): 4020

C=Cc1ccc(NC(=O)CSc2nnc(-c3cccnc3)n2C2CC2)cc1
efficacy (Orco; calcium mobilization, agonist; HEK293 expressing Drosophila Orco; baseline: VUAA1): 126%

COCOc1c(Br)cc(Br)cc1CNC(=O)c1ccccc1[N+](=O)[O-]
melting temperature (lasR; thermal stability, differential scanning fluorimetry): 57.2 °C

O=S(=O)(O)c1ccc2cc(S(=O)(=O)O)ccc2c1
ligand efficiency (Beta-lactamase OXA-48 (OXA-48, Klebsiella pneumoniae, UniProt Q6XEC0); enzyme activity): 0.4

C#CCN1CC[C@]23c4c5ccc(O)c4O[C@H]2[C@H](NC(=O)c2ccc(N=[N+]=[N-])c([125I])c2)CC[C@@]3(O)[C@H]1C5
slowly dissociating fraction (Mu-type opioid receptor (Oprm1, Mus musculus, UniProt P42866); binding; CHO cell membranes; 0 °C): 87%

COc1ccc2c(c1)c(CC(=O)NCCCCNC(=O)CCC(=O)OC1c3cc4c(cc3C(c3cc(OC)c(OC)c(OC)c3)C3C(=O)OCC13)OCO4)c(C)n2C(=O)c1ccc(Cl)cc1 (stereo not drawn)
potency decrease (Prostaglandin G/H synthase 2 (Ptgs2, Mus musculus, UniProt Q05769, V509I); enzyme activity, inhibitor; baseline: mutant V523I over wild type): 3.8 fold

O=C(O)c1ccc(-c2cccc(C(=O)O)c2)cc1
ligand efficiency (Beta-lactamase (blaOXA-33, Acinetobacter baumannii, UniProt Q8RLA6); enzyme activity, inhibitor): 0.3

CC(C)C[C@H](NC(=O)[C@H](CC(N)=O)NC(=O)c1ccccc1N)C(=O)N[C@@H](CCCNC(=N)N)C(=O)N[C@@H](CCCNC(=N)N)C(=O)N[C@@H](CCCNC(=N)N)C(=O)N[C@@H](CCCNC(=N)N)C(=O)N[C@@H](CC(=O)O)C(=O)N[C@@H](CC(C)C)C(=O)N[C@H](C(=O)N[C@@H](CC(=O)O)C(=O)N[C@@H](CCC(N)=O)C(=O)NCCNc1ccc([N+](=O)[O-])cc1[N+](=O)[O-])C(C)C
Km (Furin (FURIN, Homo sapiens, UniProt P09958); substrate; pH 7): 0.33 µM

O=C(NCc1cc(Br)cc(Br)c1OC(=O)c1ccccc1[N+](=O)[O-])c1ccccc1Cl
melting temperature (lasR; thermal stability, differential scanning fluorimetry): 62.6 ± 0.2 °C

C[C@@H]1CN(C)CCN1c1nc(-c2ccc(F)cc2)cs1
serotonin efflux (Sodium-dependent serotonin transporter (Slc6a4, Rattus norvegicus, UniProt P31652); efflux of preloaded [3H]5-HT, releaser, [3H]5-HT efflux; 10 µM, added: preloaded with [3H]5-HT 20 µM): 1.8 ± 0.6 fmol/min

COC(=O)[C@@H](CS)N1C(=O)c2ccc(N(C)C)cc2C1=O
maximum fluorescence increase (Metallo-beta-lactamase type 2 (blaNDM-1, Klebsiella pneumoniae, UniProt C7C422); probe; fully metalated enzyme, added: ZnSO4 up to 50 µM; baseline: probe alone): ~17 fold and 17 fold

CC(=O)NCCCC[C@H](NC(=O)CNC(=O)[C@H](CCCNC(=N)N)NC(C)=O)C(=O)N[C@@H](Cc1c[nH]c2ccccc12)C(N)=O
kcat (Protein deacetylase HDAC6 (HDAC6, Homo sapiens, UniProt Q9UBN7); deacetylation, substrate; 25 °C, added: 10 to 50 nM enzyme): 0.25 ± 0.04 s⁻¹

CCCCCCCC(=O)Oc1c(Br)cc(Br)cc1CNC(=O)c1ccccc1[N+](=O)[O-]
melting temperature (lasR; thermal stability, differential scanning fluorimetry): 65.4 °C

O=c1ccn([C@@H]2O[C@H](COP(=O)(O)OP(=O)(O)OP(=O)(O)O)[C@@H](O)[C@]2(F)Br)c(=O)[nH]1
IC50 fold change (Genome polyprotein, NS5B polymerase (Hepatitis C virus genotype 6a, UniProt O39927); polymerase activity, inhibitor; Hepatitis C virus, genotype 6a; baseline: genotype 1b): 0.92

CC1(C)Oc2cc(C(=O)c3csc4ccccc34)cc(O)c2[C@@H]2C[C@H](O)CC[C@H]21
Bmax reduction (Cannabinoid receptor 2 (Cnr2, Mus musculus, UniProt P47936); covalent photolabelling, UV photolabelling, then [3H]CP-55,940 saturation binding; HEK293 cell membranes; 10 x Ki, 30 min incubation, 1 h irradiation, 37 °C, UV 365 nm; baseline: control): 67%

CC1(C)SCN(C(=O)[C@@H](O)[C@H](Cc2ccccc2)NC(=O)COc2ccccc2)[C@@H]1C(=O)N[C@H]1c2ccccc2C[C@H]1O
-TΔS of binding (Gag-Pol polyprotein, protease (gag-pol, Human immunodeficiency virus type 1 group M subtype B, UniProt P04585, L521I/L551I/Q495K); isothermal titration calorimetry; concentration not given, pH 5.0, 25 °C): -6.3 kcal/mol

CC(=O)N[C@@H](Cc1c[nH]cn1)C(=O)N[C@H](C(=O)NCC(=O)N[C@@H](Cc1ccccc1)C(=O)N[C@@H](CC(C)C)C(=O)N[C@H](C(=O)N[C@@H](CCC(=O)O)C(=O)N[C@@H](Cc1cc(=O)oc2cc(OP(=O)(O)O)ccc12)C(=O)N[C@H](C(=O)N[C@@H](C)C(=O)N[C@H](C(=O)N[C@@H](CCCNC(=N)N)C(=O)N[C@@H](Cc1c[nH]c2ccccc12)C(N)=O)[C@@H](C)O)C(C)C)[C@@H](C)OP(=O)(O)O)[C@@H](C)O
kcat (Dual specificity protein phosphatase 3 (DUSP3, Homo sapiens, UniProt P51452); substrate; pH 6, ERK1/2 activation-loop peptide): 0.26 s⁻¹

O=C(OCC1CCCN(C(=O)CCc2ccccc2)C1)c1ccccc1-c1ccccc1 (stereo not drawn)
potency fold increase (Neuronal acetylcholine receptor; alpha4/beta2 (Homo sapiens, UniProt P17787+P43681); receptor inhibition, negative allosteric modulator; cell-based; baseline: amide over non-carbonyl analog): 2.4

Cc1nc2c[nH]c(/C=C/C=C/c3ccc(N(C)C)cc3)cn-2c1=O
signal enhancement (Amyloid-beta precursor protein, Aβ42 oligomers (APP, Homo sapiens, UniProt P05067); oligomer binding; 15 µM, amyloid-beta oligomers; baseline: probe without protein): 42.4 ± 3.3 fold

COC(=O)[C@@]1(C)C=C(C(=O)Nc2cc(C(=O)Nc3ccc(Nc4nccc(-c5cccnc5)n4)cc3)ccc2C)C(=O)CC1
remaining activity (MAPK8; kinase activity, inhibitor; 0.5487 µM, unit not given, added: 10 mM GSH; baseline: DMSO): 0.101

CCn1c(SCC(=O)Nc2ccc(C(C)C)cc2)nnc1-c1ccnc(F)c1
efficacy (Orco; calcium mobilization, agonist; HEK293 expressing Drosophila Orco; baseline: VUAA1): 148%

CCC(c1ccc(-c2cc(F)ccc2F)cc1F)n1ccnc1 (stereo not drawn)
Kd (cyp121; binding): 8 ± 1.3 µM

CC(=O)NCCCC[C@H](NC(=O)[C@H](CCCCNC(C)=O)NC(=O)[C@H](Cc1c[nH]cn1)NC(=O)[C@H](CCCNC(=N)N)NC(C)=O)C(N)=O
kcat (Histone deacetylase 8 (HDAC8, Homo sapiens, UniProt Q9BY41); deacetylation, substrate; 25 °C, added: 150 nM enzyme): 0.1 ± 0.03 s⁻¹

COc1ccc(CN[C@@H]2CO[C@H](C(c3ccccc3)c3ccccc3)C[C@H]2O)cc1
inhibition (5-hydroxytryptamine receptor 1A (HTR1A, Homo sapiens, UniProt P08908); radioligand binding; 10 µM, added: [3H]8-OH-DPAT): 45.9%

A few entries again:
CC(=O)NCCCC[C@H](NC(=O)[C@H](CCCCNC(C)=O)NC(=O)[C@H](Cc1c[nH]cn1)NC(=O)[C@H](CCCNC(=N)N)NC(C)=O)C(N)=O
kcat (Histone deacetylase 8 (HDAC8, Homo sapiens, UniProt Q9BY41); deacetylation, substrate; 25 °C, added: 150 nM enzyme): 0.1 ± 0.03 s⁻¹

C=Cc1ccc(NC(=O)CSc2nnc(-c3cccnc3)n2C2CC2)cc1
efficacy (Orco; calcium mobilization, agonist; HEK293 expressing Drosophila Orco; baseline: VUAA1): 126%

COC(=O)[C@@]1(C)C=C(C(=O)Nc2ccc(C)c(C(=O)Nc3ccc(Nc4nccc(-c5cccnc5)n4)cc3)c2)C(=O)CC1
remaining activity (MAPK8; kinase activity, inhibitor; 0.1829 µM, unit not given, added: 10 mM GSH; baseline: DMSO): 0.13

CC1(C)C(=CC=C(C=CC2=[N+](CCCCS(=O)(=O)[O-])c3ccc4ccccc4c3C2(C)C)c2ccc3cc[n+](Cc4ccc([N+](=O)[O-])cc4)cc3c2)N(CCCCS(=O)(=O)[O-])c2ccc3ccccc3c21
Km (Oxygen-insensitive NAD(P)H nitroreductase (nfsB, Escherichia coli K-12, UniProt P38489); substrate, fluorogenic turn-on): < 1 µM
